Assay results from different studies.
Protocols differ between the studies behind these lines.
CTSL: Procathepsin L (CTSL, Homo sapiens, UniProt P07711)
UniProt P07711, sequence (whole entry, looked up): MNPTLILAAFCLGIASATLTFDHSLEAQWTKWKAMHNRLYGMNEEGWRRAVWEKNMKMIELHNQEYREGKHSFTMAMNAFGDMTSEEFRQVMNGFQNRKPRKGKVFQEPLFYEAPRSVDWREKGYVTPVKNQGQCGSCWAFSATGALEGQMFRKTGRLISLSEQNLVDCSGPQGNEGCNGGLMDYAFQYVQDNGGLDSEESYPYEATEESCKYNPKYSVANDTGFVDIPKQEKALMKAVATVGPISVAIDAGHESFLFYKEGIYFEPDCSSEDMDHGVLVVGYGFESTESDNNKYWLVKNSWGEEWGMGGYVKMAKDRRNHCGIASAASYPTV
DRD3: D(3) dopamine receptor (DRD3, Homo sapiens, UniProt P35462)
UniProt P35462, sequence (whole entry, looked up): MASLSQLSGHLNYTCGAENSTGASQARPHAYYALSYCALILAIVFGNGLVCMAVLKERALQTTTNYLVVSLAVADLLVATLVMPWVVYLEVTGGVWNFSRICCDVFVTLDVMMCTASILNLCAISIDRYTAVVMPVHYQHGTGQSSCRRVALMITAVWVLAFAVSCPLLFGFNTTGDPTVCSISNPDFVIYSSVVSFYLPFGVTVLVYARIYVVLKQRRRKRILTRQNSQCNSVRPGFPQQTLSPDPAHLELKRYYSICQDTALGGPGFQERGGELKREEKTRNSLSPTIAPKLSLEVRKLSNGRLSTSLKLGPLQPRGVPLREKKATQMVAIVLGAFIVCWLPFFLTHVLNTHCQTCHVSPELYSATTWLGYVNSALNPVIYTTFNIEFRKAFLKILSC
UniProt P00519, sequence (whole entry, unmodified, looked up): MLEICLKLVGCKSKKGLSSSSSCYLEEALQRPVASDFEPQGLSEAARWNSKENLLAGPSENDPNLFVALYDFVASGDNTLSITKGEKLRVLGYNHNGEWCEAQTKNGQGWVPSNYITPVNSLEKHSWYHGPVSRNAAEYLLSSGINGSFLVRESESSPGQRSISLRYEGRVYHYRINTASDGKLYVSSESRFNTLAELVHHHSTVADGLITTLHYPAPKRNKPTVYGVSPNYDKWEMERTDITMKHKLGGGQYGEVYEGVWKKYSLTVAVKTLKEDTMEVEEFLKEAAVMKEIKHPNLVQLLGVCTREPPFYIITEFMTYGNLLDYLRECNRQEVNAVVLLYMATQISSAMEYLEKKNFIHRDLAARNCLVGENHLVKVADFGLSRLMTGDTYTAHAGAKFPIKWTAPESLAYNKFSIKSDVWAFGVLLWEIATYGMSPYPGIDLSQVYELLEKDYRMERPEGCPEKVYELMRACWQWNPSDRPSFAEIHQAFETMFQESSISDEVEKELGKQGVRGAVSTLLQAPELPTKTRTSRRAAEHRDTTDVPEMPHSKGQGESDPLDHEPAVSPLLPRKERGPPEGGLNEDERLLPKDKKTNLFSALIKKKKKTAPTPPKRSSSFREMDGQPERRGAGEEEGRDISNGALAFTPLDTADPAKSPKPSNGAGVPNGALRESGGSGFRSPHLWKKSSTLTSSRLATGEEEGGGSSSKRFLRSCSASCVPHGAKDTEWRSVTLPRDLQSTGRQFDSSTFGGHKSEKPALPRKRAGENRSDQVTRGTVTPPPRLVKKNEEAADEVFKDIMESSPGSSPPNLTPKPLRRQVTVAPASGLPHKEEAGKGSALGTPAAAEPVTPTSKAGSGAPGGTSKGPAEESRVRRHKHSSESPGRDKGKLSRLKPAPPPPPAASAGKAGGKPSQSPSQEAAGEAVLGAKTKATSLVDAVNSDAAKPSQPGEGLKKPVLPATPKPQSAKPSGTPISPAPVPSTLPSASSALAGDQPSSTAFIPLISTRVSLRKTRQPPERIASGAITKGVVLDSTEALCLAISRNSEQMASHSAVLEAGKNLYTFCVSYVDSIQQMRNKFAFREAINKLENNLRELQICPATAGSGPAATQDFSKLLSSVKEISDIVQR
UniProt P61075, sequence (whole entry, looked up): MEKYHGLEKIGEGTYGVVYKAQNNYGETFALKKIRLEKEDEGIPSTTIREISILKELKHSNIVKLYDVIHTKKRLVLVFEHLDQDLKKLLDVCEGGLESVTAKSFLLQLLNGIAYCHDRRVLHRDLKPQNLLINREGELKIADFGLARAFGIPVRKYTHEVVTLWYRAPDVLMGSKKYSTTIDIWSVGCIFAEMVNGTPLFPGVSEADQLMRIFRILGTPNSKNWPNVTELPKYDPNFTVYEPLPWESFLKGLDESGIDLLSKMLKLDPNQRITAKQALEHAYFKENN
UniProt P06239, sequence (whole entry, looked up): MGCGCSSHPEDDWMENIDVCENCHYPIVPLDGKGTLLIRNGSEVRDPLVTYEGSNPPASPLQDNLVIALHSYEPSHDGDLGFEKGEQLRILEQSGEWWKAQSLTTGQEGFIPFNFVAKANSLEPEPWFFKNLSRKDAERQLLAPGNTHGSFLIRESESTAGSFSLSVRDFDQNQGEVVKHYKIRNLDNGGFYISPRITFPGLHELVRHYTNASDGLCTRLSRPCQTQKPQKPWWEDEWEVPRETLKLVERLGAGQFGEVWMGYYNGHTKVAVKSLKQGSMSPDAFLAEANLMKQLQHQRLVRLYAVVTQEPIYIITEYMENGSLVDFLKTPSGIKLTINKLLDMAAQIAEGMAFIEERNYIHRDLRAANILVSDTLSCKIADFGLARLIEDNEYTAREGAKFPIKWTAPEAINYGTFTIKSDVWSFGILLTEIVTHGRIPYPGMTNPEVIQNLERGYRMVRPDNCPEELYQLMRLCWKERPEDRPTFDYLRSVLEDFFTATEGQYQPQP
UniProt O43293, sequence (whole entry, looked up): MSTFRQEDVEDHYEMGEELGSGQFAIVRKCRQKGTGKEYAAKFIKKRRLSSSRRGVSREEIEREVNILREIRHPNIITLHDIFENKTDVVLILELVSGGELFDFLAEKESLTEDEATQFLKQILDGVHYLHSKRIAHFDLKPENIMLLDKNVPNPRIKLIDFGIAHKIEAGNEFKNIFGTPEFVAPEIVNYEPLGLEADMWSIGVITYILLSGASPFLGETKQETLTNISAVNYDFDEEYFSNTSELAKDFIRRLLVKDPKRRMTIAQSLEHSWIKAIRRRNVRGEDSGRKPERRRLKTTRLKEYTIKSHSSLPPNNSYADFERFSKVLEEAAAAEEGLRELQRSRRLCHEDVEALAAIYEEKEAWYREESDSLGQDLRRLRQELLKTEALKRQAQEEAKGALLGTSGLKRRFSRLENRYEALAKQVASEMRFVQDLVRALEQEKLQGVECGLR
UniProt P09619, sequence (whole entry, looked up): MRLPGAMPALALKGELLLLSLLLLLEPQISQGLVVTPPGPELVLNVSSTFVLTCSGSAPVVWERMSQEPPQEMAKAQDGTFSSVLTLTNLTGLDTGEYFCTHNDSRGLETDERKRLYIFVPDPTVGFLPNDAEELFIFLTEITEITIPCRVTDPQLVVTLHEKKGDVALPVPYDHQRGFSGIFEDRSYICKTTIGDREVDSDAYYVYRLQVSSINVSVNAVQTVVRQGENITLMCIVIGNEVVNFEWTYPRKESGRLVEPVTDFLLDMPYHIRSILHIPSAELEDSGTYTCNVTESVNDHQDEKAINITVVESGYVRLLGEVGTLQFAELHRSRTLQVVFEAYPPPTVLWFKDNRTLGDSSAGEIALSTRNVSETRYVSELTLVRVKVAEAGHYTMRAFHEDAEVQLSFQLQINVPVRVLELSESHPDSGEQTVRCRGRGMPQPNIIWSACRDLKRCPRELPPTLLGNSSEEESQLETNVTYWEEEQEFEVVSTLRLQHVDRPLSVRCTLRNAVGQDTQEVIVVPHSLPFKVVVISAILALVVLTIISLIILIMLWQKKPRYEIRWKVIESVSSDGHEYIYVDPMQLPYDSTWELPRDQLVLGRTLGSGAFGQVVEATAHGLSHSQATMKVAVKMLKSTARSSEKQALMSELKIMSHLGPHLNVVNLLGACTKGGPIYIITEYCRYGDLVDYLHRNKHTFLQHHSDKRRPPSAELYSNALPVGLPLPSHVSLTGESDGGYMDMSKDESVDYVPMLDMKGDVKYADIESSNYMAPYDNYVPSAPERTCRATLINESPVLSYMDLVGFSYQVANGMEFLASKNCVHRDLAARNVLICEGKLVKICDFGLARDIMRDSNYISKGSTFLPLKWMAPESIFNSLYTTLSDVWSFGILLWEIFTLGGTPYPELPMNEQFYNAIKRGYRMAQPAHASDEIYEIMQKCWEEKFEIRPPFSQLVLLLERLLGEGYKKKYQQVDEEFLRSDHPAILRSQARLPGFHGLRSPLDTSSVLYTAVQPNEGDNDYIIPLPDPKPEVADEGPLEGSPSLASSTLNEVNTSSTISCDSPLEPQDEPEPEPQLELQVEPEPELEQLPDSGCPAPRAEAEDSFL
UniProt Q00535, sequence (whole entry, looked up): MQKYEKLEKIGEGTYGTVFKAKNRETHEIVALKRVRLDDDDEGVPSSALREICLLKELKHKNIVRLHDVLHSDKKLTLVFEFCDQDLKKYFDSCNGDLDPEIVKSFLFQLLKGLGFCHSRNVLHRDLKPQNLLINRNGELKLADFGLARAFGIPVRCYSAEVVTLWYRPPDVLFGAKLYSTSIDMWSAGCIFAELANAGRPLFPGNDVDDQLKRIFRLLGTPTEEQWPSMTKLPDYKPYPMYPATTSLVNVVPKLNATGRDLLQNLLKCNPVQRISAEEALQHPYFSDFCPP
UniProt P53778, sequence (whole entry, looked up): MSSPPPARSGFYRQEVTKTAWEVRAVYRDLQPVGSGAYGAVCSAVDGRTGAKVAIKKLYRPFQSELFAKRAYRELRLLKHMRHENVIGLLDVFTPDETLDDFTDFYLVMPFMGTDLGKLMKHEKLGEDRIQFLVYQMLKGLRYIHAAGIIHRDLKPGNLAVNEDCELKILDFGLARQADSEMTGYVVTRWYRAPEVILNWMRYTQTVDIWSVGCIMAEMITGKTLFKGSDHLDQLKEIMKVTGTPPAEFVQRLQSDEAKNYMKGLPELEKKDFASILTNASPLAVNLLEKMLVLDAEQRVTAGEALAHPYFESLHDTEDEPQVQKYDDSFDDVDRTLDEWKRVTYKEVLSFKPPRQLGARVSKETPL

With Nc1ncnc2occ(-c3ccc(NC(=O)Nc4cc(C(F)(F)F)ccc4F)cc3)c12 the remaining signal was 18% (Tyrosine-protein kinase ABL1, non-phosphorylated (ABL1, Homo sapiens, UniProt P00519, F317L); cell-free assay, inhibitor; 20 µM).
The remaining activity of Cc1c(O)c(C)c2c(c1O)C(=O)C[C@@H](c1ccc(O)cc1)O2 is reported as 7.42% (CTSL; enzyme activity, inhibitor; 100 µM).
With COc1ccc2oc(-c3ccc4nc(N)oc4c3)c/c(=N\c3ccccc3NC(=O)CCN)c2c1 the remaining signal was 96% (Epidermal growth factor receptor (EGFR, Homo sapiens, UniProt P00533, L861Q); cell-free assay; 1 µM).
The remaining activity of CC1OC(Oc2c(-c3ccc(O)c(O)c3)oc3cc(O)cc(O)c3c2=O)C(O)C(O)C1O (centres unmarked) is reported as 73.5% (CTSL; enzyme activity, inhibitor; 100 µM).
The Emax of Cc1[nH]c(C)c(S(=O)(=O)Nc2ccc(C(F)(F)F)c(Cl)c2)c1C(=O)N1CCC(C#N)C1 (centres unmarked) is reported as 110% (DRD3; β-arrestin recruitment, agonist; 90 min).
CC(=O)Nc1ccc(Oc2nnc(-c3ccc(Cl)cc3)c3ccccc23)cc1 gave a cell death of 84.4% (MCF7; cell growth or viability, MTT; 0.312 µM).
C=CC(=O)N1CCC(COCC(=O)N2CCN(c3nc(-c4cnc(N)nc4C(F)F)nc(N4CCOC[C@@H]4C)n3)CC2)CC1 gave a remaining binding of 99% (Mitogen-activated protein kinase 12 (MAPK12, Homo sapiens, UniProt P53778); binding, competition with immobilised ligand; 1 µM).
For COc1ccc(OC)c(-c2cc(C(C)=O)n3ccccc23)c1, the ΔTm was 6.5 to 7.3 °C (Bromodomain-containing protein 9 (BRD9, Homo sapiens, UniProt Q9H8M2); thermal stability, DSF; 200 µM).
For CCCCC(=O)Nc1ccc(-c2ccc3ncn(CCC)c(=O)c3c2)cn1, the remaining binding was 100% (Death-associated protein kinase 3 (DAPK3, Homo sapiens, UniProt O43293); binding, competition with immobilised ligand; 0.5 µM).
CC1(C)CCC2=C(O1)c1ccccc1C(=O)C2=O has a remaining activity of 8.35% (CTSL; enzyme activity, inhibitor; 100 µM).
The remaining activity of CC[C@H](C)[C@H](NC(=O)[C@H](CCC(N)=O)NC(=O)[C@@H](NC(=O)[C@H](CCSC)NC(=O)[C@H](CCCCN)NC(=O)[C@H](CO)NC(=O)[C@@H](NC(=O)[C@H](CCSC)NC(=O)[C@H](CC(C)C)NC(=O)[C@H](CC(N)=O)NC(=O)[C@@H](NC(=O)[C@@H](NC(=O)[C@H](CO)NC(=O)[C@H](CC(C)C)NC(=O)[C@H](C)NC(=O)[C@H](CCCNC(=N)N)NC(=O)[C@H](CCC(=O)O)NC(=O)[C@H](Cc1ccc(O)cc1)NC(=O)[C@H](Cc1ccccc1)NC(=O)[C@H](C)NC(=O)[C@H](CC(N)=O)NC(=O)[C@@H](N)CCCCN)[C@@H](C)CC)[C@@H](C)CC)[C@@H](C)O)C(C)C)C(=O)N[C@@H](CC(N)=O)C(=O)N[C@H](C(=O)O)C(C)C is reported as 102% (Cyclin-dependent kinase 5, with p25 (CDK5, Homo sapiens, UniProt Q00535); enzyme activity, inhibitor, radiometric; 1 µM, 20 min).
The remaining binding of Cc1cc([C@@H](C)Nc2ccccc2C(=O)O)c2nc(N3CCC(F)(F)CC3)c(C#N)c(=O)n2c1 is reported as 92% (Platelet-derived growth factor receptor beta (PDGFRB, Homo sapiens, UniProt P09619); binding, competition with immobilised ligand; 1 µM).
CCN(O)N=Nc1ccc(S(=O)(=O)Nc2nccs2)cc1 has an inhibition of 38.2% (ABTS scavenging; 120 µg/mL).
For CC[C@@H](C)[C@@H]1NC(=O)[C@H](Cc2ccc(O)cc2)NC(=O)[C@@H](N)CSSC[C@@H](C(=O)N2CCC[C@H]2C(=O)N[C@@H](CCCN=C(N)N)C(=O)NCC(N)=O)NC(=O)[C@H](CC(N)=O)NC(=O)[C@H](CCC(N)=O)NC1=O, the remaining activity was 81.6% (CTSL; enzyme activity, inhibitor; 100 µM).
With C[C@@H]1CCN(c2nccc(-c3cnn4ncccc34)n2)C1 the remaining signal was 84% (Cyclin-dependent kinase 2 homolog (CRK2, Plasmodium falciparum, UniProt P61075); cell-free assay; 1 µM).
For CC(=NNC(=O)c1ccccc1Cl)c1ccc(Nc2nnc(-c3ccc(Cl)cc3)c3ccccc23)cc1, the cell death was 95.3% (MCF7; cell growth or viability, MTT; 10 µM).
For CCN(C)C(=O)c1c(C)[nH]c(C)c1S(=O)(=O)Nc1ccc(C(F)(F)F)c(Cl)c1, the Emax was 98% (DRD3; β-arrestin recruitment, agonist; 90 min).
COc1cc(-c2cncc3c2CN(C)Cc2cc(N4CCNCC4)ccc2-3)cc(OC)c1OC has a remaining activity of 81% (Tyrosine-protein kinase Lck, phosphorylated (LCK, Homo sapiens, UniProt P06239); enzyme activity, inhibitor; 1 µM).
With CC(C)=CCc1c(O)ccc(C(=O)/C=C/c2ccc(O)cc2)c1O the remaining activity was 50.2% (CTSL; enzyme activity, inhibitor; 100 µM).
With O=S(=O)(Nc1nccs1)c1ccc(N=NN(O)c2ccccc2)cc1 the inhibition was 64.2% (ABTS scavenging; 120 µg/mL).
For CNc1ncc2c(/C=C/C(=O)N3CCC(OC)CC3)nn(Cc3cccc(C(F)(F)F)c3)c2n1, the remaining activity was 102% (Serine/threonine-protein kinase TAO2 (TAOK2, Homo sapiens, UniProt Q9UL54); enzyme activity, inhibitor, radiometric; 1 µM).
O=c1c(O)cccc2cc(O)c(O)c(O)c12 gave a remaining activity of 38% (CTSL; enzyme activity, inhibitor; 100 µM).
C1=C/COCc2cc(ccc2OCCN2CCCC2)Nc2nccc(n2)-c2cccc(c2)COC/1 gave a remaining binding of 90% (Serine/threonine-protein kinase PAK 6 (PAK6, Homo sapiens, UniProt Q9NQU5); binding; 0.1 µM).
